Measurements from different studies.
Protocols differ between the studies behind these lines. ± gives the spread as reported.

| SMILES | cell line | read-out | method | time | setting | with | IC50 [nM] |
| --- | --- | --- | --- | --- | --- | --- | --- |
| C[C@H](c1ccccc1)N1C(=O)C2=Nc3ccc(F)cc3CN2C1=S | healthy human PBMCs | cell viability | resazurin |  |  |  | 1500 ± 20 |
| COc1cc(C(=O)N/N=C/c2cccc3ccccc23)cc(OC)c1OC | NALM-6 | cell growth or viability | MTT | 48 h |  |  | 88.5 |
| O=C(O)c1ccc(-c2ccc(O)cc2)c2c1C=C(c1ccc(O)cc1)OC2(c1ccc(O)cc1)c1ccc(O)cc1 | MGC-803 | cell growth or viability | MTT | 48 h |  |  | 8730 |
| CCC(=CCc1c(O)cc2c(c1O)C(=O)CC(c1ccc(OC)c(O)c1)O2)CC (stereo not drawn) | normal pig cell line | cytotoxicity | MTT | 48 h |  |  | 99800 ± 2700 |
| CCOc1cncc(-c2ccc(NC(=O)C3(c4ccnc(NS(=O)(=O)C5CC5)n4)CCOCC3)nc2)n1 | MKN-7 | cell proliferation | CellTiter-Glo | 72 h | Gastric cancer |  | 10000 |
| C=CC(=O)Nc1ccc(F)c(-c2ncnc3[nH]cc(C(=O)OCC)c23)c1 | mouse naive B cells | CD69 induction |  |  | BTK dependent | anti-IgM | > 10000 |
| C[C@H](c1ccccc1)N1C(=O)C2=Nc3cc([N+](=O)[O-])ccc3CN2C1=S | healthy human PBMCs | cell viability | resazurin |  |  |  | 2500 ± 800 |
| Cc1cnc2nc1Nc1cccc(c1)COCc1cc(ccc1OCCN1CCOCC1)N2 | SET-2 | cell growth or viability | CCK-8 |  |  |  | 16100 |
| CC(=O)[O][Pt]([NH2])([NH2])([Cl])([Cl])[O]C(=O)C(C)c1ccc(CC(C)C)cc1 (stereo not drawn) | C13* cisplatin-resistant ovarian | cytotoxicity | MTT | 72 h |  |  | 1500 ± 300 |
| NC(=O)c1ccc(-c2ccccc2Cl)c2c3c([nH]c12)CC[C@@H](N)C3 | NCI-H446 | cell proliferation |  | 96 h |  |  | 75.6 |
| CC(C)c1ccc(N(C)c2ccc3c(c2)OCC[C@H]3CNc2cnccc2C(=O)O)cc1 | HuTu80 | cell growth or viability | ATP luminescence | 7 days |  |  | 4.36 |
| COc1cccc(N2C(=O)C3=Nc4ccccc4CN3C2=S)c1 | healthy human PBMCs | cell viability | resazurin |  |  |  | 42800 ± 6100 |
| CCC(=CCc1c(O)cc2c(c1O)C(=O)CC(c1ccccc1O)O2)CC (stereo not drawn) | normal pig cell line | cytotoxicity | MTT | 48 h |  |  | > 120000 |
| COCC1CN(C2CCN(c3cc(OC)c(Nc4ncc(Br)c(Nc5ccc6c(c5P(C)(C)=O)OCCO6)n4)cc3C)CC2)C1 | Ba/F3 EGFR Del19/T790M/C797S | cell growth | CellTiter-Glo | 3 days |  |  | 25 |
| COc1cc(NC(=O)Nc2cc(C(F)(F)F)ccc2F)ccc1C(=O)Nc1ccc2[nH]ncc2c1 | KM12 | cell growth or viability | ATP luminescence | 72 h |  |  | > 50000 |
| CCn1nc(Cl)c2c1-c1cnc(N)c(c1)O[C@H](C)c1cc(F)ccc1-c1nn(C)cc1C2 | KARPAS-299 (NPM1-ALK) | cell viability |  |  |  |  | 1.95 |
| Cn1cc(-c2n[nH]c3ccc(NC(=O)c4cccc(NC(=O)Nc5cc(C(F)(F)F)ccc5F)c4)cc23)cn1 | KM12 | cell growth or viability | ATP luminescence | 72 h |  |  | > 50000 |

| SMILES | cell line | read-out | method | time | setting | with | IC50 [nM] |
| --- | --- | --- | --- | --- | --- | --- | --- |
| CC(C)=CC1OC(C)(C)C2C=C3C(=O)C(Cl)=CC(O)C3C3C(O)C4OC4C(=O)C132 (stereo not drawn) | NALM-6 | cell growth or viability | MTS |  |  |  | 1720 |
| O=[N+]([O-])c1ccc(C=NNC(Nc2ccccc2)=[S+][Au-][Cl])o1 | CAKI-1 | cell growth or viability | resazurin |  |  |  | 40000 |
| Cc1cnc2nc1Nc1cccc(c1)COCCCCOCc1cc(ccc1OCCN1CCCC1)N2 | SET-2 | cell growth or viability | CCK-8 |  |  |  | 9460 |
| CC#CC(=O)N1CCC[C@H]1c1nc(-c2ccc(C(=O)Nc3ccccn3)cc2)c2c(N)nccn12 | TMD8, parental | cell viability | CellTiter-Glo | 4 days |  |  | 14 |
| CCC(=CCc1c(O)cc2c(c1O)C(=O)CC(c1c(O)cccc1OC)O2)CC (stereo not drawn) | normal pig cell line | cytotoxicity | MTT | 48 h |  |  | 98600 ± 3400 |
| Oc1ccc(C#Cc2cccc3c2C(c2ccc(O)cc2)(c2ccc(O)cc2)c2cc(O)ccc2-3)cc1 | MGC-803 | cell growth or viability | MTT | 48 h |  |  | 10100 |
| CNS(=O)(=O)Nc1nccc(Cc2c(C)c3ccc(Oc4ncccc4F)cc3oc2=O)c1F | NCI-H747 | cell viability |  | 7 days |  |  | 45.3 |
| COC[C@H](C)N1C(=O)C2=Nc3ccccc3CN2C1=S | healthy human PBMCs | cell viability | resazurin |  |  |  | > 100000 |
| CNC(NN=Cc1ccc([N+](=O)[O-])o1)=[S+][Au-][Cl] | CAKI-1 | cell growth or viability | resazurin |  |  |  | 15500 |
| Cc1ccc([N+](=O)[O-])cc1S(=O)(=O)N(C)/N=C/c1cnc2ccc(Br)cn12 | KM12 | cell viability | MTS |  |  |  | 6 |
| O=C(NCc1cc(F)cc(F)c1)[C@@]1(O)CCN(c2ccc3[nH]ccc3c2)C1=O | CNS PDX-derived tumour cells | colony formation | soft agar clonogenic | 8-10 days |  |  | 100 |
| O=C(Nc1ccc(C(=O)Nc2ccc3[nH]nc(-c4ccccc4)c3c2)c(C(F)(F)F)c1)Nc1cc(C(F)(F)F)ccc1F | KM12 | cell growth or viability | ATP luminescence | 72 h |  |  | > 50000 |
| C=CC(=O)N1CC2C(=O)N(CCN(C)C)c3c(c4cc(Cl)c(-c5c(O)cccc5F)nc4n(-c4c(C)ccnc4C(C)C)c3=O)N2CC1C (stereo not drawn) | NCI-H1792 | cell growth or viability |  |  |  |  | 10.2 |
| CC(=O)N[C@@H](CSC1CC(=O)N(CCCCCC(=O)NC2(C(=O)N3CCC(n4cc(Cc5ccc6c7c(cccc57)C(=O)N6C5CCC(=O)NC5=O)cn4)CC3)CCC2)C1=O)C(=O)O (stereo partly drawn) | NCI-H929 | cell growth or viability |  | 72 h |  |  | 14.9 |
| Cn1cc(-c2n[nH]c3ccc(NC(=O)c4cccc(NC(=O)Nc5ccc(OC(F)(F)F)cc5)c4)cc23)cn1 | KM12 | cell growth or viability | ATP luminescence | 72 h |  |  | > 50000 |
| CN1CCC(N[C@H]2CCc3[nH]c4c(C(N)=O)ccc(-c5ccccc5Cl)c4c3C2)CC1 | NCI-H446 | cell proliferation |  | 96 h |  |  | 1240 |

Repeated from above:
| SMILES | cell line | read-out | method | time | setting | with | IC50 [nM] |
| --- | --- | --- | --- | --- | --- | --- | --- |
| CCOc1cncc(-c2ccc(NC(=O)C3(c4ccnc(NS(=O)(=O)C5CC5)n4)CCOCC3)nc2)n1 | MKN-7 | cell proliferation | CellTiter-Glo | 72 h | Gastric cancer |  | 10000 |
| CC#CC(=O)N1CCC[C@H]1c1nc(-c2ccc(C(=O)Nc3ccccn3)cc2)c2c(N)nccn12 | TMD8, parental | cell viability | CellTiter-Glo | 4 days |  |  | 14 |
